{"data": "Published values of several laboratories", "note": "Each numbered part is a random draw from the data of one study; scales do not carry over between parts. Changes are numbered by the printed parent chain.", "chain of UniProt P23946 (whole entry, looked up)": "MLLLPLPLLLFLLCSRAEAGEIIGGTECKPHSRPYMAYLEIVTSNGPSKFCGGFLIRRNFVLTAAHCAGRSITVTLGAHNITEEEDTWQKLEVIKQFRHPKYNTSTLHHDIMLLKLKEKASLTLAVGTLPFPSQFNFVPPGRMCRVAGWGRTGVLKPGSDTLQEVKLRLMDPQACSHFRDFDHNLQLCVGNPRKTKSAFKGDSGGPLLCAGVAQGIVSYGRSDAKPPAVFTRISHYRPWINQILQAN"}
{"data": "Set 1", "target": "CCNE1, cyclin fold, Cln2 fusion (human)", "method": "yeast growth competition, sequencing", "medium": "yeast", "setting": "strong parent motif", "reference": "not given", "reading": "higher = stronger binding", "starting sequence": "viral docking peptide; YKVKRRLVFGADD"}
{"Variant": "YKVKRRLVFGAGD [D12G]", "normalised enrichment score": 5.33}
{"Variant": "YKVKRRLVGGADD [F9G]", "normalised enrichment score": 0.215}
{"Variant": "YKVKRRLVKGADD [F9K]", "normalised enrichment score": 0.14}
{"Variant": "YKVKRRGVFGADD [L7G]", "normalised enrichment score": 0.0389}
{"Variant": "YKVKRRPVFGADD [L7P]", "normalised enrichment score": -0.047}
{"Variant": "YKHKRRLVFGADD [V3H]", "normalised enrichment score": 2.05}
{"Variant": "YKVKRRLVFGARD [D12R]", "normalised enrichment score": 3.23}
{"Variant": "YKVKPRLVFGADD [R5P]", "normalised enrichment score": -0.0026}
{"data": "Set 2", "target": "HLA class I histocompatibility antigen, A alpha chain, allele A*25:01 (Homo sapiens, UniProt P04439)", "observed": "peptide-MHC binding", "molecule type": "peptide", "tested at": "concentration not given"}
{"Sequence": "TGIVSSMHY", "binding": "inactive"}
{"Sequence": "TTILGLLPM", "binding": "inactive"}
{"Sequence": "AYSSWMYSY", "binding": "inactive"}
{"Sequence": "RMILPMSRAFR", "binding": "inactive"}
{"Sequence": "FSDLCNFLI", "binding": "inactive"}
{"Sequence": "SYMLQGLRK", "binding": "inactive"}
{"Sequence": "YQAENSTAE", "binding": "inactive"}
{"Sequence": "PLTNQRYRV", "binding": "inactive"}
{"data": "Mixed results"}
{"SMILES": "O=C1Nc2ccc(Cl)cc2C(c2ccccc2Cl)=NC1O (stereo not drawn)", "target or system": "Sarcocystis neurona", "assay": "parasite growth", "conditions": "10 µM, 96 h, second screen", "scale": "reference: untreated", "measurement": "log2 fold change", "value": 0.12}
{"SMILES": "CC(C)C[C@H](NC(=O)[C@@H](NC(=O)N[C@@H](Cc1ccccc1)C(=O)O)[C@@H]1CCN=C(N)N1)C(=O)N[C@H](C=O)Cc1ccccc1", "target or system": "Chymase (CMA1, Homo sapiens, UniProt P23946)", "measurement": "IC50", "value": "14.3 nM"}
{"note": "A few entries again (set 2):"}
{"Sequence": "PLTNQRYRV", "binding": "inactive"}
